Experimental data from different studies.
Protocols differ between the studies behind these lines. “And” joins repeats or separate records; there may be more than shown. Numbers after ± are the reported error. ≈ marks a conversion by molar mass, not a printed value.
Sequence of UniProt Q4U2R8 (whole entry, looked up): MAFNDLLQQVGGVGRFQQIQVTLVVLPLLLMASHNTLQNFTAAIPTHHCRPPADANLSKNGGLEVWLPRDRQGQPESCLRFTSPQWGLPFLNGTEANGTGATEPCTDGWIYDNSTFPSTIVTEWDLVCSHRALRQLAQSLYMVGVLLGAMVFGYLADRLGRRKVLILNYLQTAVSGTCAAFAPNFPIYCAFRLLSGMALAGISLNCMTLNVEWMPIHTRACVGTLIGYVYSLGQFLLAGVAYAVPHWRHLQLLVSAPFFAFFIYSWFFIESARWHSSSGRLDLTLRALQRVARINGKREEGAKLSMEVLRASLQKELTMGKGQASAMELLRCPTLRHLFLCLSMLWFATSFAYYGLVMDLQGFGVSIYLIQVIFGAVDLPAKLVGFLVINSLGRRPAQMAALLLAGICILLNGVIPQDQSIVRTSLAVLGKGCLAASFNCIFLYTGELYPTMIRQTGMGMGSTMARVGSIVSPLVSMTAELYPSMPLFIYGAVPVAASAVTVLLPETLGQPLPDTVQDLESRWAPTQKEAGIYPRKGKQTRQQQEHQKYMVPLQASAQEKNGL

Structure (SMILES) | tested on | test | test system | conditions | endpoint | value
CCn1cc(-c2cc([C@@H](C)NC(=O)c3cc(OCCN(C)C)ccc3C)c3ccccc3n2)c(C(F)(F)F)n1 | Vero E6 |  |  | 3.906 µM | viability | 107% and 108%
CC(=O)NCCCC[C@@H]1NC(=O)[C@H](Cc2c[nH]c3c(C)cccc23)NC(=O)[C@H]([C@@H](C)O)NC(=O)[C@H](CC(N)=O)NC(=O)[C@@H](NC(C)=O)C(C)(C)SSC(C)(C)[C@@H](C(=O)N[C@@H](Cc2ccc(OCCN)cc2)C(=O)N[C@@H](Cc2ccc3ccccc3c2)C(=O)NC2(C(=O)N[C@@H](CCC(=O)O)C(=O)N[C@@H](CC(N)=O)C(=O)N[C@@H](Cc3cccnc3)C(=O)N(C)CC(N)=O)CCOCC2)NC1=O | Albumin (ALB, Homo sapiens, UniProt P02768) | equilibrium dialysis | purified human albumin | 0.1 µM | protein binding | 25.7 ± 4.3 % bound
O=C1NC2(CC2)COc2ncc(F)cc2[C@H]2COCCN2c2ccn3ncc1c3n2 |  |  | Sprague-Dawley rat, female, serum | oral, 2.5 mg/kg/day, end of recovery, 4-week subacute toxicity | serum LDH activity | 560 ± 101 U/L
COc1ccc2c3c1O[C@H]1[C@H](O)CC[C@@]4(O)[C@@H](C2)N(C)CC[C@]314 |  |  | octanol/buffer | 1 h, pH 7.4 | logD | -0.94
Cc1ccc(OCCN(C)C)cc1C(=O)N[C@H](C)c1cc(-c2ccco2)nc2ccccc12 | Vero E6 |  |  | 3.906 µM | viability | 101% and 99.8%
Nc1nc(Nc2ccc(Cl)c(Cl)c2)nn1S(=O)(=O)c1ccc2ccccc2c1 | Syrian hamster cells |  |  |  | CC50 | 10 µM
Cc1ccc(O[C@H]2CCN(C)C2)cc1C(=O)N[C@H](C)c1cc(-c2cnn(C)c2)nc2ccccc12 | Vero E6 |  |  | 125 µM | viability | 2.45% and 5.05% and 3.82%
CCN(CC)CCOc1ccc(-c2nnn(Cc3ccc(OC)cc3)c2N)cc1 | CYP3A |  |  | concentration not given | inhibition | 76.2%
COc1ccc2c3c1O[C@H]1[C@@H](O)C=C[C@H]4[C@@H](C2)N(CCc2ccccc2)CC[C@@]341 |  |  | octanol/phosphate buffer | 1 h, pH 5.74, ionic strength 0.15 M | logD | 1.05
COc1cc2c(cc1NC(=O)c1cncn1C)C[C@H]1[C@H]3CCCC[C@@]23CCN1C |  |  | C57BL/6 mice, plasma | oral, 50 µg/g, 300 min | plasma concentration | 1.05 µg/mL and 0.955 µg/mL and 0.916 µg/mL and 1.51 µg/mL
Cc1nc2cccc(OCC(C)(C)C(=O)NC(C)C)c2c(N)c1C(=O)[O-].[Na+] | Salmonella typhimurium | Ames plate incorporation | TA1535 | 0.80 mg/plate, together with: with rat liver S9 | revertant colonies | 14 ± 4 colonies/plate
CC(C)N1CN(C2c3ccccc3CSc3ccccc32)n2cc(C(=O)O)c(=O)c(O)c2C1=O (stereo not drawn) |  |  | bovine cells |  | CC50 | > 10 µM
Cc1cc(-c2ccc3ccccc3c2)nnc1NCCN1CCN(C)CC1 | SLC22A6 (Homo sapiens, UniProt Q4U2R8) | transporter uptake, inhibitor |  | 10 µM | inhibition | 3%
CCn1ccc(-c2cc([C@@H](C)NC(=O)c3cc(N4CC5CCC(C4)N5C)ccc3C)c3ccccc3n2)n1 | Vero E6 |  |  | 7.812 µM | viability | 92.7% and 85% and 96.6%
CC[C@H](C)[C@H](NC(=O)[C@H](CCCCN)NC(=O)[C@H](CCCCN)NC(=O)[C@H](Cc1ccccc1)NC(=O)[C@H](Cc1ccccc1)NC(=O)[C@H](CCCCN)NC(=O)[C@H](CCCCN)NC(=O)[C@H](Cc1ccccc1)NC(=O)[C@H](CCCNC(=N)N)NC(=O)[C@@H](N)CCCCN)C(=O)N[C@@H](CCCCN)C(=O)N[C@@H](CCCCN)C(=O)N[C@@H](CO)C(=O)N[C@H](C(=O)N[C@@H](CCCCN)C(=O)N[C@@H](CCCCN)C(=O)N[C@@H](CCCNC(=N)N)C(=O)N[C@H](C(=O)N[C@@H](CCCCN)C(=O)N[C@@H](CCCCN)C(=O)N[C@@H](CC(C)C)C(=O)N[C@@H](Cc1ccccc1)C(=O)N[C@@H](CCCCN)C(=O)N[C@@H](CCCCN)C(=O)N1CCC[C@H]1C(=O)N[C@@H](CCCNC(=N)N)C(=O)N[C@H](C(=O)N[C@H](C(=O)N1CCC[C@H]1C(=O)N[C@H](C(=O)N[C@@H](CO)C(=O)N[C@H](C(=O)N1CCC[C@H]1C(=O)N[C@@H](Cc1ccccc1)C(=O)O)[C@@H](C)CC)[C@@H](C)CC)[C@@H](C)CC)C(C)C)C(C)C)C(C)C | Pseudomonas aeruginosa |  | P1 | after heating at 90 °C | MIC | 4 mg/L (≈ 0.948 µM)
Cc1ccc(OCCN(C)C)cc1C(=O)N[C@H](C)c1cc(-c2cnn(CC(=O)N(C)C)c2)nc2ccccc12 | Vero E6 |  |  | 3.906 µM | viability | 98% and 95.5%
COc1ccnc(C(=O)N[C@H]2COC(=O)[C@H](Cc3ccccc3)[C@@H](OC(=O)C(C)C)[C@H](C)OC2=O)c1O | Oncorhynchus mykiss | flow-through |  | 96 h | LC50 | 0.0073 mg/L (≈ 0.0142 µM)
COc1ccc2c3c1O[C@H]1[C@@H](O)C=C[C@H]4[C@@H](C2)N(CC2CCC2)CC[C@@]341 |  | PAMPA-BBB | porcine brain lipid | 500 µM, 4 h, pH 7.4, 1% DMSO | Papp | 535 nm/s
CCn1ccc(-c2cc([C@@H](C)NC(=O)c3cc(OC[C@H]4CCCN4C)ccc3C)c3ccccc3n2)n1 | Vero E6 |  |  | 500 µM | viability | 2.34% and 0.469% and 0.781%
CN(C)c1ccc(-c2nc3ccccc3n2CCCOc2ccccc2)cc1 | Ba/F3 | cytotoxicity |  | 3 days | IC50 | > 1.25 µM
CN1CC[C@]23c4c5ccc(O)c4O[C@H]2[C@H](O)C=C[C@@]3(O)[C@H]1C5 |  | PAMPA-BBB | porcine brain lipid | 500 µM, 4 h, pH 7.4, 1% DMSO | Papp | 41.5 nm/s
Cc1ccc(OCCN(C)C)cc1C(=O)N[C@H](C)c1cc(-c2ccc(C(F)(F)F)s2)nc2ccccc12 | Vero E6 |  |  | 7.812 µM | viability | 126% and 122%
CN1CC[C@]23c4c5ccc(O)c4O[C@H]2[C@H](O)CC[C@@]3(O)[C@H]1C5 |  |  |  |  | Δlog k, isomerization effect | -0.07 log units
Cc1ccc(N2CCN(C)[C@H](C)C2)cc1C(=O)N[C@H](C)c1cc(-c2cnn(C)c2)nc2ccccc12 | African green monkey cells |  |  | 125 µM | viability | 3.45%

Repeated from above:
Structure (SMILES) | tested on | test | test system | conditions | endpoint | value
CCn1cc(-c2cc([C@@H](C)NC(=O)c3cc(OCCN(C)C)ccc3C)c3ccccc3n2)c(C(F)(F)F)n1 | Vero E6 |  |  | 3.906 µM | viability | 107% and 108%
CC(=O)NCCCC[C@@H]1NC(=O)[C@H](Cc2c[nH]c3c(C)cccc23)NC(=O)[C@H]([C@@H](C)O)NC(=O)[C@H](CC(N)=O)NC(=O)[C@@H](NC(C)=O)C(C)(C)SSC(C)(C)[C@@H](C(=O)N[C@@H](Cc2ccc(OCCN)cc2)C(=O)N[C@@H](Cc2ccc3ccccc3c2)C(=O)NC2(C(=O)N[C@@H](CCC(=O)O)C(=O)N[C@@H](CC(N)=O)C(=O)N[C@@H](Cc3cccnc3)C(=O)N(C)CC(N)=O)CCOCC2)NC1=O | Albumin (ALB, Homo sapiens, UniProt P02768) | equilibrium dialysis | purified human albumin | 0.1 µM | protein binding | 25.7 ± 4.3 % bound
